Assay results pooled from the literature.
Each numbered part is a random draw from the data of one study; scales do not carry over between parts.
UniProt Q14289, sequence (whole entry, looked up): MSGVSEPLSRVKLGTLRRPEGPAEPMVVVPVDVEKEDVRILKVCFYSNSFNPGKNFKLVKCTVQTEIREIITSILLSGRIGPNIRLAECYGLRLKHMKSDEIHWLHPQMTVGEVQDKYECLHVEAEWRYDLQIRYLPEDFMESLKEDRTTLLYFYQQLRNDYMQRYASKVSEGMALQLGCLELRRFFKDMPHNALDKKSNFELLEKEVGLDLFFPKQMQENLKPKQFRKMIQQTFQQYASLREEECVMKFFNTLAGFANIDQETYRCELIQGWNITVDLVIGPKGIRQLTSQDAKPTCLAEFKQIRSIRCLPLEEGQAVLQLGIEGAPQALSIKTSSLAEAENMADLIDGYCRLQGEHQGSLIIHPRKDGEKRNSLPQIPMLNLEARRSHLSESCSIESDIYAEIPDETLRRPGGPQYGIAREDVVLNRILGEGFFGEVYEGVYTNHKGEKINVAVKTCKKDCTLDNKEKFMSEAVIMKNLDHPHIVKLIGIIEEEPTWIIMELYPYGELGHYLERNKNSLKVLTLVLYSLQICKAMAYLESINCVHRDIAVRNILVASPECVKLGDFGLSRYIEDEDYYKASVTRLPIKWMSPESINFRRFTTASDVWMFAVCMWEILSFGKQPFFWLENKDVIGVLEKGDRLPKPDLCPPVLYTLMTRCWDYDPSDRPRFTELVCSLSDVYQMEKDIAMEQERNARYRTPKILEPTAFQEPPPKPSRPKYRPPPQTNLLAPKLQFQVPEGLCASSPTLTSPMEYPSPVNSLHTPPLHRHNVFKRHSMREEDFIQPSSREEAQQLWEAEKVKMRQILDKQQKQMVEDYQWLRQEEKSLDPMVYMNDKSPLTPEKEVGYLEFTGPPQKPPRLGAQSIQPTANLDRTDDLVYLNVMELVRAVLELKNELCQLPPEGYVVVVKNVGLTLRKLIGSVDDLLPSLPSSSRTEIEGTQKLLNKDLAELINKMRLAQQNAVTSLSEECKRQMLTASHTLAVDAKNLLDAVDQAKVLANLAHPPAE
UniProt Q05397, sequence (whole entry, looked up): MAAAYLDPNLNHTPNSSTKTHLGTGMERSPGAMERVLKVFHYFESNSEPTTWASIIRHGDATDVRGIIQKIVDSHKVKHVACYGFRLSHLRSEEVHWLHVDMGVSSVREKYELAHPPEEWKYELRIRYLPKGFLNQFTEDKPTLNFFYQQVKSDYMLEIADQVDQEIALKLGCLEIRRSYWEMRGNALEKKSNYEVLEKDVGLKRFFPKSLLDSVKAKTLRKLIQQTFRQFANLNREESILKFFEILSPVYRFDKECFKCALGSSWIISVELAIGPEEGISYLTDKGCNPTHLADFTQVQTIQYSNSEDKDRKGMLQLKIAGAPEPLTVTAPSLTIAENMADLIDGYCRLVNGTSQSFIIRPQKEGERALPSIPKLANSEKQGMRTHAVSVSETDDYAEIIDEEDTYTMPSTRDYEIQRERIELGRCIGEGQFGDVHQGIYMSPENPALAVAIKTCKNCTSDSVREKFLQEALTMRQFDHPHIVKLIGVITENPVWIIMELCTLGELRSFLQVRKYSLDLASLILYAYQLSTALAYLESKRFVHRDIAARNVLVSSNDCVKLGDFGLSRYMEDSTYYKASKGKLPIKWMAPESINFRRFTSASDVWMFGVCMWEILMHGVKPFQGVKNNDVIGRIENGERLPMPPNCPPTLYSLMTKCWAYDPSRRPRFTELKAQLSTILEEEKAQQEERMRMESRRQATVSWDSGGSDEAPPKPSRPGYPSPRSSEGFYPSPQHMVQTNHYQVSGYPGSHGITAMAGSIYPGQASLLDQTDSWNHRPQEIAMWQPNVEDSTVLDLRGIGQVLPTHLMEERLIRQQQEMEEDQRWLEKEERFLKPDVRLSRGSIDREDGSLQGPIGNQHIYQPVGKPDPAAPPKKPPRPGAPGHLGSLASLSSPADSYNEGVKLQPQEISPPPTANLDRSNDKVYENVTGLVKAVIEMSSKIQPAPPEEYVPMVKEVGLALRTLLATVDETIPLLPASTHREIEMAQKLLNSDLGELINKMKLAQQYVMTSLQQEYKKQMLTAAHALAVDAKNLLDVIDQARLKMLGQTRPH
UniProt P37173, sequence (whole entry, looked up): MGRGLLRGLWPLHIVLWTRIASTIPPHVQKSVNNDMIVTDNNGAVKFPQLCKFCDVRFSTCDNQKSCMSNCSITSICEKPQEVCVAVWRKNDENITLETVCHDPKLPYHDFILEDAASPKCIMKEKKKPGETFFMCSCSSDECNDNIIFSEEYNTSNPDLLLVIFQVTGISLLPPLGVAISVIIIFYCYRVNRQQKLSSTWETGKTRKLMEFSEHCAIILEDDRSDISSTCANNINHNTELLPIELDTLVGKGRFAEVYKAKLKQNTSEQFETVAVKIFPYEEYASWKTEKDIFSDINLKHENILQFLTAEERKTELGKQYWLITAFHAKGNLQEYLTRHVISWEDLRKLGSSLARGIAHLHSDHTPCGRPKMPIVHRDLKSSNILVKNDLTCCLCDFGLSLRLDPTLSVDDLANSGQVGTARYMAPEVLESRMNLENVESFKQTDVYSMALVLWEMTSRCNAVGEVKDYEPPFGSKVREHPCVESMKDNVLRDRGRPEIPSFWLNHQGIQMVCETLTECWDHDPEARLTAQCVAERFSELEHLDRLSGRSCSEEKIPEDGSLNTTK
UniProt Q8TDC3, sequence (whole entry, looked up): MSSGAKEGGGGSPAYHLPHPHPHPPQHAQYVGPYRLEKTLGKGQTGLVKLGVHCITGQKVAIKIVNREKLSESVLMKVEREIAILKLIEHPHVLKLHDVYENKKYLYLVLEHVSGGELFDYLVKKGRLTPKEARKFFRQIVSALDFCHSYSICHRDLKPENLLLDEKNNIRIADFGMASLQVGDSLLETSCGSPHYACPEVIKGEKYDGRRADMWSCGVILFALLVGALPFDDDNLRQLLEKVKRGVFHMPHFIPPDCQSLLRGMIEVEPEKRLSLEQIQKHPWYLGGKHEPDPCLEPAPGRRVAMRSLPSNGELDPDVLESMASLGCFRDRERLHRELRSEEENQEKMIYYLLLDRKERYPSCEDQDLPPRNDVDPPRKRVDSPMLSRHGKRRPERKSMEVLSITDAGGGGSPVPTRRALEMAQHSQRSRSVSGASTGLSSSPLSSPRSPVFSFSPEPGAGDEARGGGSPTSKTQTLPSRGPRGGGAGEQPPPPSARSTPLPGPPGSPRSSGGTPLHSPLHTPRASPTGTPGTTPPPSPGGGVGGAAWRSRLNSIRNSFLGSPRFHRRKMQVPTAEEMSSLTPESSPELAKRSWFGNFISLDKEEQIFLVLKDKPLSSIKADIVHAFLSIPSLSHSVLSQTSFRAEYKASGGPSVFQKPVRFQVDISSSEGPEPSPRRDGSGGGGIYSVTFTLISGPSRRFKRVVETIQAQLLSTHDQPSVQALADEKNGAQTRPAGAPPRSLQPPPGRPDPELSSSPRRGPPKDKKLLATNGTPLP
UniProt Q04771, sequence (whole entry, looked up): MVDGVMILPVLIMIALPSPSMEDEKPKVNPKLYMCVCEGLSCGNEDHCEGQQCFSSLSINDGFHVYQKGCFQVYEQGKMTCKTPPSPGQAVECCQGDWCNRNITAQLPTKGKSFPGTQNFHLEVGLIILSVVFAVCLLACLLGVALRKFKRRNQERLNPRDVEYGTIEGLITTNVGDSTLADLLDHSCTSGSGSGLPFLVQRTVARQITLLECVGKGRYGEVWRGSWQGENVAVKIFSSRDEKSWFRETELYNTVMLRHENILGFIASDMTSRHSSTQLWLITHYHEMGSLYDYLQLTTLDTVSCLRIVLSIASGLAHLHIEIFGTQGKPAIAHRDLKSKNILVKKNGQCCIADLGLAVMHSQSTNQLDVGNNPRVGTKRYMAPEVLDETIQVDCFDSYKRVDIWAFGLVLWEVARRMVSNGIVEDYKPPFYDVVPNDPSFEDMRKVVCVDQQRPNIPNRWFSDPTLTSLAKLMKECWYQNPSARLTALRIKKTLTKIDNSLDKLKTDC

Sample 1
Target: Alpha-1D adrenergic receptor (ADRA1D, Homo sapiens, UniProt P25100)
UniProt P25100, sequence (whole entry, looked up): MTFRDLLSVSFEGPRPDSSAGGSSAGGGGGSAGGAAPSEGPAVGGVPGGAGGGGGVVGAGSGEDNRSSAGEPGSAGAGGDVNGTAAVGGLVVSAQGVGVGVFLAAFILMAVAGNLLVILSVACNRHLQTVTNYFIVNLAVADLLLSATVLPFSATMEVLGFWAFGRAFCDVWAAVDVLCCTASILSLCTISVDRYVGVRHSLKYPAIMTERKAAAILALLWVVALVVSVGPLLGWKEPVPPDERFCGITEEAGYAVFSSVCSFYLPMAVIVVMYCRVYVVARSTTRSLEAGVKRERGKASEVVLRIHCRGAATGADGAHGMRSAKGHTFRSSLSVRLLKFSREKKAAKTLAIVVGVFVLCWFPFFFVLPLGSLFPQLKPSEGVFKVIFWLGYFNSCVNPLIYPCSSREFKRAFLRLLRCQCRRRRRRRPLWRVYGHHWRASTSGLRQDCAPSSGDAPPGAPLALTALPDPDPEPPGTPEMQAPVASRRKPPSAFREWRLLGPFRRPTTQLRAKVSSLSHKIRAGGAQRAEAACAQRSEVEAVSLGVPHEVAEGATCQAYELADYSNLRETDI
Observed: ligand displacement
Tested at: 10 µM
Quantity: inhibition
COc1ccc2cc(OCC3(C(=O)O)CN(C(=O)c4ccc(F)cc4)C3)ccc2c1: -3.76%
CN1CCN(C(=O)C(C)(C)c2ccc(C(=O)Nc3cn4cc(-c5cc(C(C)(C)C)cc(C(C)(C)C)c5)ccc4n3)cc2)CC1: 57%
CS(=O)(=O)N1CCCC(NC(=O)[C@H](CCC2CCCCC2)NC(=O)c2ccc(CNC(=O)c3cnc4ccccn34)cc2)C1 (stereo partly shown): 6.47%
CCC(=NO)C(C)=Cc1ccc(F)c(C)c1: -3.74%
CN(C)CC#Cc1ccc(OCCCc2sc(N3CCc4cccc(C(=O)Nc5nc6ccccc6s5)c4C3)nc2C(=O)O)c(F)c1: 1.52%
c1ccc(N2CCN(Cc3nc4ccccc4[nH]3)CC2)nc1: -4.6%
N#CC1(c2ccccn2)CCN(Cc2cc(C(=O)N3CCCC3)c(=O)n3ccccc23)CC1: -10.2%
Cc1ccccc1Oc1cc(-n2c(=O)cc(C(F)(F)F)[nH]c2=O)c2ccccc2c1Cl: -5.48%
COc1cc(C(=O)O)ncc1C#Cc1ccccc1NS(=O)(=O)c1cccc2c(N(C)C)ccnc12: 1.48%
C[C@@H](c1cccc(C#N)c1)n1cc(Cl)cc(C(N)=O)c1=N: 60.5%
Cc1cc(Nc2nccc(C)n2)cc(-c2cnc([C@@]3(O)CC[C@H](C(=O)O)C(C)(C)C3)s2)c1: -4.92%
COc1cccc(NC(=O)c2nc3scc(CN(C)Cc4ccccc4)c3c(=O)[nH]2)c1: 12.6%
CNC(=O)Nc1ccc2c(c1)CC[C@]21OC(=O)N(CC(=O)N(Cc2ccc(F)cc2)[C@@H](C)C(F)(F)F)C1=O: -1.58%
CC(=O)Nc1ncc(CN2CCC[C@H](Cc3cc(C)nc(C)c3)C2)s1: 8.3%
CN1CCN(c2cnc3c(C4CCN(C(=O)c5ccc(OC(F)(F)F)cc5N)CC4)ncnc3c2)CC1: -10.3%

Sample 2
Compound: CC#CC(=O)N1CCC[C@H]1c1nc(-c2ccc(C(=O)Nc3ccccn3)cc2)c2c(N)nccn12
Observed: enzyme activity
Action: inhibitor
Tested at: 1 µM
Quantity: inhibition
PTK2B (Homo sapiens, UniProt Q14289): 0%
BRSK1 (Homo sapiens, UniProt Q8TDC3): 0%
TGFBR2 (Homo sapiens, UniProt P37173): 0%
Tyrosine-protein kinase ABL1, non-phosphorylated (ABL1, Homo sapiens, UniProt P00519, H396P): 31%
NEK11 (Homo sapiens, UniProt Q8NG66): 0%
MAP3K6 (Homo sapiens, UniProt O95382): 0%
PTK2 (Homo sapiens, UniProt Q05397): 5%
ACVR1 (Homo sapiens, UniProt Q04771): 18%

Sample 3
Cell line: mouse MPNST tumor cells
Technique: high-content nuclear imaging
Measured: cell number
Tested at: 10 µM
Time: 12 h
Notes: mean of 2 replicates
Relative to: plate mean
Direction: higher = more cells
Quantity: nuclei count
CC1(C)S[C@@H]2[C@H](NC(=O)[C@H](N)c3ccccc3)C(=O)N2[C@H]1C(=O)O: 4.26 z-score
CN1[C@@H]2CC[C@H]1C[C@@H](OC(=O)C(O)c1ccccc1)C2 (mixture of isomers): 1.77 z-score
CCCC(C)NC(=O)c1ccc(Cl)c(Cl)c1 (stereo not shown): 1.4 z-score
Nc1nc(/C(=C/CC(=O)O)C(=O)N[C@@H]2C(=O)N3C(C(=O)O)=CCS[C@H]23)cs1: 0.556 z-score
O=C(Nc1cccc2cccnc12)c1ccc(N2C(=O)[C@@H]3[C@H](C2=O)[C@H]2C=C[C@@H]3C2)cc1: 2.21 z-score
O=C(NCCCCN1CCN(c2cccc(Cl)c2Cl)CC1)c1ccc2c(c1)Cc1ccccc1-2: 2.14 z-score

Sample 4
Host: mouse
Matrix: microsomes or S9
Tested at: 2 µM
Time: 0.5 h
Quantity: remaining compound
O=c1c(Br)c(Br)cnn1CCn1ncc(Br)c(Br)c1=O: 31.2%
COC(=O)c1cccc2[nH]c(NCc3c(C)nn(C(C)(C)C)c3C)nc12: 0.159%
c1ccc(Oc2cccc(CNc3ccc4nnnn4n3)c2)cc1: 0.0229%
CC(C)(C)c1ccc(Oc2ccc(N)c(Cl)c2)cc1: 14.7%
COc1cc(=O)n2c(c1C(=O)NCc1ccccc1C(F)(F)F)CCCC2: 10.5%
CSc1ccc(C2c3cccn3-c3sc4c(c3CN2C(=O)NCc2ccc(F)cc2)CCCC4)cc1 (stereo not shown): 30.9%
O=C(OCc1ccccc1)N1CCC2(CC1)CNc1ccccc12: 4.66%
CN1CCc2c(c3ccccc3n2-c2cncnc2)C1: 28.8%

For quick reference, copied from above (sample 1):
C[C@@H](c1cccc(C#N)c1)n1cc(Cl)cc(C(N)=O)c1=N: 60.5%
CS(=O)(=O)N1CCCC(NC(=O)[C@H](CCC2CCCCC2)NC(=O)c2ccc(CNC(=O)c3cnc4ccccn34)cc2)C1 (stereo partly shown): 6.47%
c1ccc(N2CCN(Cc3nc4ccccc4[nH]3)CC2)nc1: -4.6%
